# Assay results from different studies.
# Each line is one published result; not all experiments were run side by side. ± marks the error that the study gave.
# Cell line: MCF7
SMILES,assay,setting,scale,measurement,result
C#CCOCC1=C(C(=O)OCC)C(c2cccc(Cl)c2)N2C(=N1)Sc1ccccc12 (stereo not drawn),MTT,"100 µM, 48 h",,viability,~52%
COc1ccc(NC(=O)C2C(=O)C(c3ccccc3)c3ccc4c(c32)C(=O)c2ccccc2C4=O)cc1 (stereo not drawn),,,baseline: Vero IC50 over MCF7 IC50,selectivity index,1.08
CN1C(=O)C2(Cc3ccc(CC45SSC(CO)(C(=O)N4C)N(C)C5=O)cc3)SSC1(CO)C(=O)N2C (racemic),"qRT-PCR, item: LOX","600 nM, hypoxia",,mRNA level inhibition,94%
CC(=O)N1CCCC[C@H]1C(=O)NC(C)(C)C(=O)N1CCCC[C@H]1C(=O)NC(C)(C)C(=O)NC(C)(C)C(=O)N[C@@H](CC(C)C)C(=O)N[C@H](C)CC(=O)NCC(=O)NC(C)(C)C(=O)NC(C)(C)C(=O)N1CCCC[C@H]1C(=O)NC(C)(C)C(=O)NCC(=O)N[C@@H](CC(C)C)C(=O)NC(C)(C)C(=O)N[C@@H](CC(C)C)C[N+]1=C2CCCN2CCC1,"cell growth or viability, SRB",48 h,,GI50,173 nM
Cc1cc(C)n2c1C=C1C=CC(CCC(=O)NCCCCCC(=O)NCCOCCOCCOCCOCCOCCOCCNC(=O)[C@H](Cc3c[nH]c4ccccc34)NC(=O)[C@@H](CC(C)C)NC(=O)[C@H](Cc3c[nH]c4ccccc34)NC(=O)[C@@H](CC(C)C)NC(=O)[C@H](Cc3c[nH]c4ccccc34)NC(=O)[C@@H](CC(C)C)NC(=O)[C@H](Cc3c[nH]c4ccccc34)NC(=O)[C@H](NC(=O)[C@@H](NC(=O)[C@H](NC(=O)[C@H](C)NC(=O)[C@@H](CC(C)C)NC(=O)[C@H](C)NC(=O)CNC(=O)[C@@H](NC=O)C(C)C)C(C)C)C(C)C)C(C)C)=[N+]1[B-]2(F)F,"cell growth or viability, SRB",48 h,,GI50,170 nM
O=C1c2ccccc2C(=O)c2c1ccc1c2C(C(=O)Nc2ccccc2)C(=O)C1c1ccccc1 (stereo not drawn),,,baseline: Vero IC50 over MCF7 IC50,selectivity index,1.18
Cc1cc(C)n2c1C=C1C=CC(CCC(=O)NCCCCCC(=O)NCCOCCOCCOCCOCCOCCOCCNC(=O)[C@H](Cc3c[nH]c4ccccc34)NC(=O)[C@@H](CC(C)C)NC(=O)[C@H](Cc3c[nH]c4ccccc34)NC(=O)[C@@H](CC(C)C)NC(=O)[C@H](Cc3c[nH]c4ccccc34)NC(=O)[C@@H](CC(C)C)NC(=O)[C@H](Cc3c[nH]c4ccccc34)NC(=O)[C@H](NC(=O)[C@@H](NC(=O)[C@H](NC(=O)[C@H](C)NC(=O)[C@@H](CC(C)C)NC(=O)[C@H](C)NC(=O)CNC(=O)[C@@H](NC=O)C(C)C)C(C)C)C(C)C)[C@H](C)O)=[N+]1[B-]2(F)F,sulforhodamine B,48 h,,LC50,> 5000 nM
CC(=O)N1CCCC[C@H]1C(=O)NC(C)(C)C(=O)N1CCCC[C@H]1C(=O)NC(C)(C)C(=O)NC(C)(C)C(=O)N[C@@H](CC(C)C)C(=O)NCCC(=O)N[C@@H](C)C(=O)NC(C)(C)C(=O)NC(C)(C)C(=O)N1CCCC[C@H]1C(=O)NC(C)(C)C(=O)NCC(=O)N[C@@H](CC(C)C)C(=O)NC(C)(C)C(=O)N[C@@H](CC(C)C)C[N+]1=C2CCCN2CCC1,"cell growth or viability, SRB",48 h,,GI50,27 nM
CC(C)C[C@@H](NC(=O)[C@H](C)NC(=O)CNC(=O)[C@@H](NC=O)C(C)C)C(=O)N[C@@H](C)C(=O)N[C@@H](C(=O)N[C@H](C(=O)N[C@@H](C(=O)N[C@@H](Cc1c[nH]c2ccccc12)C(=O)N[C@H](CC(C)C)C(=O)N[C@@H](Cc1c[nH]c2ccccc12)C(=O)N[C@H](CC(C)C)C(=O)N[C@@H](Cc1c[nH]c2ccccc12)C(=O)N[C@H](CC(C)C)C(=O)N[C@@H](Cc1c[nH]c2ccccc12)C(=O)NCCO)[C@H](C)O)C(C)C)C(C)C,sulforhodamine B,48 h,,LC50,> 5000 nM
CC(=O)N[C@@H](CCCNC(=N)N)C(=O)N[C@@H](CCCNC(=N)N)C(=O)N[C@@H](CCCNC(=N)N)C(=O)N[C@@H](CCCNC(=N)N)C(=O)N[C@@H](CCCNC(=N)N)C(=O)N[C@@H](CCCNC(=N)N)C(=O)N[C@@H](CCCNC(=N)N)C(=O)N[C@@H](CCCNC(=N)N)C(=O)N[C@@H](CCCNC(=N)N)C(=O)N[C@@H](CCCNC(=N)N)C(=O)NCC(=O)N[C@@H](COP(=O)(O)O)C(=O)N1CCC[C@H]1C(=O)N[C@H](C(=O)N[C@@H](Cc1ccccc1)C(=O)O)[C@@H](C)O,flow cytometry,"100 µM, 24 h, added: irradiation 15 Gy",,G2/M cells,40.3 ± 1.8%
Cc1ccc(NC(=O)C2C(=O)C(c3ccccc3)c3ccc4c(c32)C(=O)c2ccccc2C4=O)cc1 (stereo not drawn),cytotoxicity,,,CC50,82.34 ± 0.16 µg/mL
C=CC[P](c1ccccc1)(c1ccccc1)[Pt]([S]c1ccccn1)([S]c1ccccn1)[P](CC=C)(c1ccccc1)c1ccccc1,annexin V/7-AAD flow cytometry,10 µM,,early apoptotic cells,62.9%
CC[C@@]1(O)C(=O)OCc2c1cc1n(c2=O)Cc2cc3cc(OC(=O)CCCC(=O)NCC(=O)N[C@@H](Cc4ccccc4)C(=O)N[C@@H](Cc4ccccc4)C(=O)N[C@@H](Cc4ccc(OP(=O)(O)O)cc4)C(=O)NCCSSCCNC(=O)CCC(=O)N[C@@H](CCC(=O)O)C(=O)N[C@@H](CCCNC(=N)N)C(=O)NCC(=O)N[C@@H](CC(=O)O)C(=O)O)ccc3nc2-1,"cell growth, MTT",48 h,baseline: free hydroxycamptothecin over compound,IC50 ratio,3.7 fold
CC[C@H](C)[C@H](NC(=O)CNC(=O)[C@H](Cc1ccc(O)cc1)NC(=O)[C@H](CO)NC(=O)[C@H](Cc1ccc(O)cc1)NC(=O)[C@@H](NC(=O)[C@H](CC(=O)O)NC(=O)[C@H](CO)NC(=O)[C@H](CCC(N)=O)NC(=O)[C@H](Cc1ccccc1)NC(=O)[C@H](CO)NC(=O)[C@H](Cc1ccccc1)NC(=O)[C@@H]1CCCN1C(=O)[C@H](CC(N)=O)NC(=O)[C@H](CC(N)=O)NC(=O)[C@H](CC(=O)O)NC(=O)[C@H](CCC(N)=O)NC(=O)[C@@H]1CCCN1C(=O)[C@H](CCCNC(=N)N)NC(=O)[C@H](CCCNC(=N)N)NC(=O)[C@H](CCCNC(=N)N)NC(=O)[C@H](CCC(N)=O)NC(=O)[C@H](CCCNC(=N)N)NC(=O)[C@H](CCCNC(=N)N)NC(=O)[C@H](CCCCN)NC(=O)[C@H](CCCCN)NC(=O)[C@H](CCCNC(=N)N)NC(=O)CN)C(C)C)C(=O)N[C@H](C(=O)N[C@@H](CC(C)C)C(N)=O)C(C)C,annexin V/7-AAD flow cytometry,"50 µM, 48 h",,late apoptotic cells,64.3%
CCOC(=O)C1=C(COCc2cn(CCN3C(=O)C(=O)c4cc(Cl)ccc43)nn2)N=C2Sc3ccccc3N2C1c1cccc(Cl)c1 (stereo not drawn),MTT,"100 µM, 48 h",,viability,~52%
C[C@@H](N)[C@H](O)CCCCCCCC(=O)CCCCCCCCCCCCCC[C@@H](O[C@@H]1O[C@H](CO)[C@H](O)[C@H](O)[C@H]1O)[C@H](N)CO,,,baseline: IC50 MCF-12A over IC50 MCF7,selectivity ratio,2.3
CC(=O)N[C@H](CCCNC(=N)N)C(=O)N[C@H](CCCCN)C(=O)N[C@H](Cc1ccc(O)cc1)C(=O)N[C@H](CS)C(N)=O,colony formation,"50 nM, 24 h",,inhibition,≤ 50%
C[C@H](N)[C@@H](CCCCCCCCCCCCCCC(=O)CCCCCCC[C@@H](O)[C@@H](C)N)O[C@@H]1O[C@H](CO)[C@H](O)[C@H](O)[C@H]1O,,,baseline: IC50 MCF-12A over IC50 MCF7,selectivity ratio,3.2
O=C1c2ccccc2C(=O)c2c1ccc1c2C(C(=O)Nc2ccccc2Cl)C(=O)C1c1ccccc1 (stereo not drawn),,,baseline: Vero IC50 over MCF7 IC50,selectivity index,1.48
Cc1cccc(O)c1C(=O)OCC1(O)C(Nc2ccc3c(c2)Cc2ccccc2-3)C(N)C(NC(=O)N(C)C)(C(C)O)C1(C)O (stereo not drawn),"cell growth or viability, SRB",,,GI50,730 nM
O=C1c2ccccc2C(=O)c2c1ccc1c2C(C(=O)Nc2ccc(Br)cc2)C(=O)C1c1ccccc1 (stereo not drawn),cytotoxicity,,,CC50,55.34 ± 0.05 µg/mL
CC(=O)N1CCCC[C@H]1C(=O)NC(C)(C)C(=O)N1CCCC[C@H]1C(=O)NC(C)(C)C(=O)NC(C)(C)C(=O)N[C@@H](CC(C)C)C(=O)NC[C@@H](C)C(=O)NCC(=O)NC(C)(C)C(=O)NC(C)(C)C(=O)N1CCCC[C@H]1C(=O)NC(C)(C)C(=O)NCC(=O)N[C@@H](CC(C)C)C(=O)NC(C)(C)C(=O)N[C@@H](CC(C)C)C[N+]1=C2CCCN2CCC1,"cell growth or viability, SRB",48 h,,GI50,30 nM
COc1cc(/C=C(\C#N)C(=O)Nc2nnc(C(F)(F)F)s2)ccc1OC(=O)N1CCN(C(=O)CCCC(=O)NCCCC[C@@H]2NC(=O)[C@@H](Cc3ccc(O)cc3)NC(=O)[C@H](CC(=O)O)NC(=O)CNC(=O)[C@H](CCCNC(=N)N)NC2=O)CC1,"cell growth or viability, MTT",,,GI50,50000 nM
CC1=CCC23OC2(C)CCC2C(C[N+](C)(C)C)C(=O)OC2C13.[I-] (stereo not drawn),"cell growth or viability, SRB",8.3 µM,,inhibition,70.6%
Cc1cc(=O)[nH]c2c(/N=N/c3ccccc3)c(O)c(/N=N/c3ccccc3)cc12,"cytotoxicity, MTT",,baseline: MCF7 over MCF-10A,selectivity index,5.11
O=C1c2ccccc2C(=O)c2c1ccc1c2C(C(=O)NCc2ccccc2)C(=O)C1c1ccccc1 (stereo not drawn),cytotoxicity,,,CC50,26.1 ± 0.85 µg/mL
Cc1nn(-c2ccccc2)c2c1C(c1ccc3c(c1)OCO3)N(C(=O)c1ccncc1)N2 (stereo not drawn),,,baseline: LC50 Vero over LC50 MCF7,selectivity index,1.28

# Some of these lines once more:
SMILES,assay,setting,scale,measurement,result
C=CC[P](c1ccccc1)(c1ccccc1)[Pt]([S]c1ccccn1)([S]c1ccccn1)[P](CC=C)(c1ccccc1)c1ccccc1,annexin V/7-AAD flow cytometry,10 µM,,early apoptotic cells,62.9%
CC(C)C[C@@H](NC(=O)[C@H](C)NC(=O)CNC(=O)[C@@H](NC=O)C(C)C)C(=O)N[C@@H](C)C(=O)N[C@@H](C(=O)N[C@H](C(=O)N[C@@H](C(=O)N[C@@H](Cc1c[nH]c2ccccc12)C(=O)N[C@H](CC(C)C)C(=O)N[C@@H](Cc1c[nH]c2ccccc12)C(=O)N[C@H](CC(C)C)C(=O)N[C@@H](Cc1c[nH]c2ccccc12)C(=O)N[C@H](CC(C)C)C(=O)N[C@@H](Cc1c[nH]c2ccccc12)C(=O)NCCO)[C@H](C)O)C(C)C)C(C)C,sulforhodamine B,48 h,,LC50,> 5000 nM
CC(=O)N[C@H](CCCNC(=N)N)C(=O)N[C@H](CCCCN)C(=O)N[C@H](Cc1ccc(O)cc1)C(=O)N[C@H](CS)C(N)=O,colony formation,"50 nM, 24 h",,inhibition,≤ 50%
CN1C(=O)C2(Cc3ccc(CC45SSC(CO)(C(=O)N4C)N(C)C5=O)cc3)SSC1(CO)C(=O)N2C (racemic),"qRT-PCR, item: LOX","600 nM, hypoxia",,mRNA level inhibition,94%
